Experimental data gathered from unrelated publications.
Compare with care: the assays were run in different laboratories. ± gives the spread as reported.

`Oc1ccc(C2(c3ccc(O)cc3)c3ccccc3-c3ccccc32)cc1` gave a viable cells of 19% (HepG2 spheroids, dissociated; annexin V-FITC/PI flow cytometry; 10 µM, 96 h).
With `C=C[C@@](C)(/C=C/c1ccc(O)cc1)CCC=C(C)C` the cytotoxicity was 0% (Vero E6; 25 µM).
With `COCCOCCOCCNC(=O)CSc1nc(C)cc(C)c1C#N` the viability was 77 ± 2% (MDA-MB-231; MTT; 100 µM, 72 h).
For `Cc1noc2c(NC3CCOCC3)cc(-c3cccc(C(F)(F)F)c3)nc12`, the AC50 was 25.1 µM (Vero E6; cytotoxicity, CellTiter-Glo; retest 8-point, no virus).
The cytotoxicity of `O=C(/C=C/c1ccc(O)c(O)c1/C=C/c1ccc(O)c(O)c1)O[C@H](Cc1ccc(O)c(O)c1)C(=O)O` is reported as 0% (Vero E6; 12.5 µM).
`Cc1cc(-c2ccccc2)c(C#N)c(SCC(=O)Nc2ccon2)n1` has a viability of 19 ± 2% (MDA-MB-231; MTT; 100 µM, 72 h).
`CN(C(=O)n1cnc(-c2ccc[n+]([O-])c2)c1)C1CCCCC1`: compound concentration “not detected” (COS cells expressing human FAAH; cell lysate; 100 nM, 24 h, quantification limit 5 nM).
`COc1ccc(NC(=O)CSc2nc(-c3ccccc3)cc(C(F)(F)F)c2C#N)cc1` gave a viability of 61 ± 8% (MDA-MB-231; MTT; 100 µM, 72 h).
`O=S(=O)(c1ccc(O)cc1)c1ccc(O)cc1` gave a viable cells of 57% (HepG2 spheroids, dissociated; annexin V-FITC/PI flow cytometry; 40 µM, 24 h).
With `COc1ccc(C[C@@H]2c3cc(Oc4cc(C[C@@H]5c6cc(O)c(OC)cc6CCN5C)ccc4O)c(OC)cc3CCN2C)cc1` the cytotoxicity was 0% (Vero E6; 12.5 µM).
`CC[C@H](C)[C@@H]1NC(=O)[C@H](CO)NC(=O)[C@H](CC(C)C)NC(=O)[C@H](CC(C)C)N(C)C(=O)[C@@H](Cc2ccc(O)cc2)NC(=O)[C@@H](Cc2ccc(O)cc2)NC(=O)CSC[C@@H](C(=O)O)NC(=O)CNC(=O)[C@@H](C(C)C)NC(=O)[C@H]2CCCN2C(=O)[C@H](C)NC1=O` — result for “Papp A to B”: 0.3 ×10⁻⁶ cm/s (MDCK-MDR1; HBSS, 0.25% BSA; 2 h).
`CN1CCN(S(=O)(=O)c2ccc(-c3cnc(N)c(C(=O)Nc4cccnc4)n3)cc2)CC1`: “ATP level reduction” 9.55% (ARPE-19 HiBiT-fibulin-3 knock-in; cell viability, CellTiter-Glo; 1.66 µM, 48 h; relative to: vehicle).
`O=C(Nc1cnccc1Cl)N1CCN(Cc2ccc3c(c2)OC(F)(F)O3)CC1`: compound concentration “not detected” (COS cells expressing human FAAH; cell lysate; 100 nM, 24 h, quantification limit 5 nM).
For `C[C@@H](NC(=O)[C@@H](C)NC(=O)[C@H](CCCCNC(=O)c1ccc(NC(=O)CCl)cc1)NC(=O)c1ccc(NC(=O)CCl)cc1)C(=O)O`, the Papp was under 1 ×10⁻⁶ cm/s (Caco-2; 10 µM).
`N.N.O=C([O-])C1(C(=O)[O-])CCC1.[Pt+2]` gave an IC50 of 102 ± 7.11 µM (MDA-MB-231; cell viability, MTT; 48 h).
For `O=c1c(O[C@@H]2O[C@H](CO)[C@H](O)[C@H](O)[C@H]2O)c(-c2ccc(O)c(O)c2)oc2cc(O)cc(O)c12`, the viability was 108% (Caco-2; CCK-8; 2.5 µM, 24 h).
`CC(c1ccccc1)(c1ccc(O)cc1)c1ccc(O)cc1`: “early apoptotic cells” 5.04 ± 2.09% (HepG2 spheroids, dissociated; annexin V-FITC/PI flow cytometry; 0.01 µM, 96 h).
With `CCn1c(-c2nonc2N)nc2cnc(Oc3cccc(NC(=O)c4ccc(OCCN5CCOCC5)cc4)c3)cc21` the CC50 was over 20 µM (human cells).
For `CC(C)(c1ccc(O)cc1)c1ccc(O)cc1`, “early apoptotic cells” read 9.15 ± 5.89% (HepG2 spheroids, dissociated; annexin V-FITC/PI flow cytometry; 10 µM, 96 h).
For `O=c1ccc2ccccc2o1`, “point of departure” read 562 µM (HepaRG 3D spheroids; phospholipidosis; 168 h, high-content imaging).
`Cc1cc(C(F)(F)F)c2c(N)c(C(=O)Nc3nccs3)sc2n1` has a viability of 33 ± 6% (MDA-MB-231; MTT; 100 µM, 72 h).
For `O=NN1CC2CC(C1)c1cc3nccnc3cc12`, the relative survival was 81.7% (TK6 expressing CYP3A4; 25 µM, 4 h, without S9; relative to: vehicle).
The CC50 of `O=C(Nc1ccc(OC(F)(F)F)cc1)c1sccc1NCc1ccnc2ccccc12` is reported as 4.6 µM (human cells).
`O=C(Nc1cnccc1Cl)N1CCN(Cc2ccc3c(c2)OC(F)(F)O3)CC1` gave a supernatant concentration of 105 ± 3.9 nM (COS cells expressing human FAAH; 100 nM, 3 h).
`O=C(O)C(F)(F)C(F)(F)C(F)(F)C(F)(F)C(F)(F)C(F)(F)C(F)(F)F` — result for “passive diffusion clearance”: 0.302 µL/s/mg protein (Caco-2 cells).
For `CC(C)=CCc1c(O)ccc(C(=O)/C=C/c2ccc(O)cc2)c1O`, the cytotoxicity was 0% (Vero E6; 25 µM).
For `CC(C)CC(=O)OC[C@H]1O[C@@](C#N)(c2ccc3c(N)ncnn23)[C@H](O)[C@@H]1O`, the efflux ratio was 2.22 (Caco-2; 0.9 µM, 2 h, with: verapamil 100 µM).
`CC(C)C[C@@H](NC(=O)[C@H](C)NC(=O)CNC(=O)[C@@H](NC=O)C(C)C)C(=O)N[C@@H](C)C(=O)N[C@@H](C(=O)N[C@H](C(=O)N[C@@H](C(=O)N[C@@H](Cc1c[nH]c2ccccc12)C(=O)N[C@H](CC(C)C)C(=O)N[C@@H](Cc1cc2ccccc2[nH]1)C(=O)N[C@H](CC(C)C)C(=O)N[C@@H](Cc1c[nH]c2ccccc12)C(=O)N[C@H](CC(C)C)C(=O)N[C@@H](Cc1c[nH]c2ccccc12)C(=O)NCCO)C(C)C)C(C)C)C(C)C` gave an IC50 of 0.00062 ± 0.00013 µM (P388 (mouse); cytotoxicity, WST-1; 92 h).
`COc1ccc(C(C)(C)c2cnc(SCCOc3ccc(-n4ccnc4)cc3)n2-c2ccc(F)cc2)cc1OC` gave an EC50 of 2.1 µM (sandwich-cultured human hepatocytes; gene induction, inducer, item: CYP2B6 mRNA; 48 h).
For `CC(C)C[C@@H]1NC(=O)CNC(=O)[C@H]2CCCN2C(=O)[C@@H](CC(C)C)NC(=O)CNC(=O)[C@H](Cc2ccc(O)cc2)NC(=O)[C@@H](Cc2ccc(O)cc2)NC(=O)[C@@H](CCCCN)NC(=O)[C@H]([C@@H](C)O)NC(=O)[C@@H]2CCCN2C(=O)[C@H](CC(C)C)NC1=O`, “Papp A to B” read 0.6 ×10⁻⁶ cm/s (MDCK-MDR1; HBSS, 0.25% BSA; 2 h).
`CC[C@@H](C)[C@H]1O[C@@H](c2c(O)c(-c3ccccc3)cn(OC)c2=O)[C@H](C)C[C@@H]1C` has an IC50 of over 10 µg/mL (LLC-PK1; cytotoxicity, neutral red uptake; 48 h).
With `O=C(Nc1cccnn1)N1CCC(=Cc2cccc(Oc3ccc(C(F)(F)F)cn3)c2)CC1` the concentration was 78 ± 3 nM (COS cells expressing human FAAH; COS cell culture supernatant; 100 nM, 0 h).
`COC(=O)c1ccc(NC(=O)CCSc2nc(C)cc(C)c2C#N)cc1` has a viability of 38 ± 3% (MDA-MB-231; MTT; 100 µM, 72 h).
The CC50 of `CC(C)c1cnn2c(NCc3ccccc3-n3cccn3)nc(OC3CCCNC3)nc12` (stereo not drawn) is reported as over 20 µM (human cells).
With `O=C(Nc1cccnn1)N1CCC(=Cc2cccc(Oc3ccc(C(F)(F)F)cn3)c2)CC1` the supernatant concentration was 72.6 ± 4.4 nM (COS cells expressing human FAAH; 100 nM, 1 h).
The viability of `C[C@@H]1O[C@@H](OC[C@H]2O[C@@H](Oc3c(-c4ccc(O)c(O)c4)oc4cc(O)cc(O)c4c3=O)[C@H](O)[C@@H](O)[C@@H]2O)[C@H](O)[C@H](O)[C@H]1O` is reported as 110% (Caco-2; CCK-8; 5 µM, 24 h).
`CC(C)C[C@@H](NC(=O)[C@H](C)NC(=O)CNC(=O)[C@@H](NC=O)C(C)C)C(=O)N[C@@H](C)C(=O)N[C@@H](C(=O)N[C@H](C(=O)N[C@@H](C(=O)N[C@@H](Cc1c[nH]c2ccccc12)C(=O)N[C@H](CC(C)C)C(=O)N[C@@H](Cc1ccc2cc[nH]c2c1)C(=O)N[C@H](CC(C)C)C(=O)N[C@@H](Cc1c[nH]c2ccccc12)C(=O)N[C@H](CC(C)C)C(=O)N[C@@H](Cc1c[nH]c2ccccc12)C(=O)NCCO)C(C)C)C(C)C)C(C)C` gave an IC50 of 0.00367 ± 0.00189 µM (P388 (mouse); cytotoxicity, WST-1; 92 h).
With `Cc1cccc(NC(=O)c2sc3nc(C)cc(C)c3c2N)n1` the viability was 71 ± 12% (MDA-MB-231; MTT; 100 µM, 72 h).
`O=C(Nc1c[nH]nc1-c1nc2cc(CN3CCOCC3)ccc2[nH]1)NC1CC1` — result for “ATP level reduction”: 10% (ARPE-19 HiBiT-fibulin-3 knock-in; cell viability, CellTiter-Glo; 1.66 µM, 48 h; relative to: vehicle).
For `CC(C)[C@H]1C(=O)N[C@@H](CCCN=C(N)N)C(=O)NCC(=O)N[C@@H](CC(=O)O)C(=O)N[C@H](Cc2ccccc2)C(=O)N1C`, “Papp B to A” read 0.102 ×10⁻⁶ cm/s (Caco-2; 200 µM).
For `CCOC(=O)c1ccc(NC(=O)CCSc2nc(C)cc(C)c2C#N)cc1`, the viability was 51 ± 4% (MDA-MB-231; MTT; 100 µM, 72 h).
For `CC(C)C[C@H]1C(=O)N[C@H]([C@H](C)O)C(=O)N[C@@H](C)C(=O)N[C@@H](Cc2ccccc2)C(=O)N[C@H](C(=O)O)CSSC[C@H](N)C(=O)N2CCC[C@@H]2C(=O)N[C@@H](CCC(=O)O)C(=O)N[C@@H](C(C)C)C(=O)N2CCC[C@H]2C(=O)N1C`, “Papp A to B” read 0.18 ×10⁻⁶ cm/s (MDCK-MDR1; HBSS, 0.25% BSA; 2 h).
For `O=C(O[C@@H]1Cc2c(O)cc(O)cc2O[C@@H]1c1cc(O)c(O)c(O)c1)c1cc(O)c(O)c(O)c1`, the cytotoxicity was 100% (Vero E6; 100 µM).
For `COC(=O)c1ccc(NC(=O)CSc2nc(-c3ccccc3)cc(C(F)(F)F)c2C#N)cc1`, the viability was 17 ± 1% (MDA-MB-231; MTT; 100 µM, 72 h).
`CC(C)C[C@H]1C(=O)N[C@@H]([C@@H](C)O)C(=O)N[C@@H](CO)C(=O)N[C@@H](C)C(=O)N[C@H]([C@H](C)O)C(=O)N2CCC[C@H]2C(=O)N(C)[C@@H](CC(C)C)C(=O)N[C@H](Cc2ccc(O)cc2)C(=O)N[C@H](Cc2ccccc2)C(=O)N[C@H](C(C)C)C(=O)NCC(=O)N1C`: “Papp A to B” 0.08 ×10⁻⁶ cm/s (MDCK-MDR1; HBSS, 0.25% BSA; 2 h).
